Measured values gathered from unrelated publications.
Each numbered part is a random draw from the data of one study; scales do not carry over between parts.

Series 1 — technique: protein binding microarray; form: double-stranded DNA, one strand shown; medium: in vitro; tested at: not given; baseline: not given; direction: higher = stronger binding
Target: Histone acetyltransferase KAT6A, winged helix 2, GST fusion (KAT6A, Homo sapiens, UniProt Q92794, residues 85-181)
Setting: 8-mer, flanks averaged, mean of 2 arrays, mostly near background
Target sequence (chain): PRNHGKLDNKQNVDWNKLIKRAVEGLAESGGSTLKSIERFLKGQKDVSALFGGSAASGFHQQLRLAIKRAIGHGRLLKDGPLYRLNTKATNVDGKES
| Oligonucleotide | E-score |
| --- | --- |
| CTTGGTGC | -0.0759 |
| CACGGCTA | 0.0628 |
| ATGTCCCG | -0.049 |
| AGTAAGGC | -0.0749 |
| CTACTTAA | -0.195 |
| ACGTTCAG | -0.137 |
| AGTGCTGC | -0.0759 |
| ATAGCGGC | 0.104 |

Series 2 — technique: RNA Bind-n-Seq; form: RNA; medium: in vitro; tested at: 365 nM; baseline: no-protein control; direction: higher = stronger binding
Target: RNA binding protein fox-1 homolog 2, RRM domain, GST-SBP tag (RBFOX2, Homo sapiens, UniProt O43251-10, residues 100-194)
Setting: natural RNA segment, single round, ends assumed
Construct (chain): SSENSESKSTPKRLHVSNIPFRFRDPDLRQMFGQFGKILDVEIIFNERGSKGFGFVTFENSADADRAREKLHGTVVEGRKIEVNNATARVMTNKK
| Oligonucleotide | RBNS enrichment (R) |
| --- | --- |
| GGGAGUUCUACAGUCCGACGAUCCUUAUCUCACAGAAUUUUGAGUGUUGUAUUUGGCAAGUUCUGAGAUUUGCCUUCUGUCUUAUGCCAAACACCCCUUUCUAAGAGCUGUCCCCGCUUAGUUUUAGAAGUACUGGAAUUCUCGGGUGCCAA | 0.728 |
| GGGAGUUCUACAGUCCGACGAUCAAGUCUGCUCAGCUGCAUGGUGGAAAGGACUGUGUUCUUUUUUUUCUUGCACACAAUUCCUUUGAAAUUACAUUGACAGCCAGGAGACAAAGGAGAGAACUGUUAACUAGUGGAAUUCUCGGGUGCCAA | 0.736 |
| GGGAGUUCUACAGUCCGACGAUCCUCUGAGAACAAAAUACUACCUCACUCUUUACGUACGUGGUGACUGUACGCACAGUCUGUGCUGCAUGUCUGUCACCCAUACGCAGUCUCAAUCAUGGCCUUCACUGAGUUGGAAUUCUCGGGUGCCAA | 3.88 |
| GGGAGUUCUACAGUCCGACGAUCGAGUGCCUAUCUGUGCUCUUUCCUCCCUCUGCGGGCUUCUCUUGCUCUGAGCCUCCCUUCCCCAUUCCCCAUCCAGCUCCUUUCCCCCUGGGUUUCCUUGGCUUCCUGCAUGGAAUUCUCGGGUGCCAA | 3.51 |
| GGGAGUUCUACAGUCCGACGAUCUUGUAUUACGAACAUAGGAGUGUCCACAUGUUGUUGUAACUCUGUCCUGCAAGAGCAGGUAUUCCAAUGACACUGGCCUGUGCUUAGCUGAGGAACUUCCAGCUUCAGAUUGGAAUUCUCGGGUGCCAA | 0.188 |

Series 3 — technique: universal PBM; form: double-stranded DNA, one strand shown; medium: in vitro; tested at: not given; direction: higher = stronger binding
Target: Sal-like protein 4, full length isoform B (SALL4, Homo sapiens, UniProt Q9UJQ4-2, residues 1-616)
Setting: 8-mer, flanks averaged, mean of replicates
Residues (chain): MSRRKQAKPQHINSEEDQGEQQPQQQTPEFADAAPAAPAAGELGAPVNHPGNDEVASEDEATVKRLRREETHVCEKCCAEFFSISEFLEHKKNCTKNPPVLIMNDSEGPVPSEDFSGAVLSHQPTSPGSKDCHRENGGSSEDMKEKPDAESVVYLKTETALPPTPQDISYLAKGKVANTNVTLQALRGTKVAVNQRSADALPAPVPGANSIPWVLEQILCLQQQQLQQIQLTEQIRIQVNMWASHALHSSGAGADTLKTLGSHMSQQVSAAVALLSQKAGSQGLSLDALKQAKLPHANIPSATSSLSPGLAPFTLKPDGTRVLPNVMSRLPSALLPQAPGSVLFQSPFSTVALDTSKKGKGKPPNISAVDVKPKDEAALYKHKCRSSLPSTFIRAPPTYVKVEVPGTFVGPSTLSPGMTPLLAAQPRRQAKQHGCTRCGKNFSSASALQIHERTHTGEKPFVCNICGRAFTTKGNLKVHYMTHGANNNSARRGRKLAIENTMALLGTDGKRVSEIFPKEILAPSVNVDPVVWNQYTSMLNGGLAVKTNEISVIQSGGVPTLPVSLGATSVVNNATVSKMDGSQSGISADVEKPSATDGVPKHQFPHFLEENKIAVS
| Oligonucleotide | E-score |
| --- | --- |
| CACATTAG | 0.0615 |
| ACGTCGAT | 0.021 |
| ATATCCAC | 0.174 |
| ATCGTACC | -0.151 |
| CTTACATC | 0.104 |
| CATTTAGA | 0.0614 |

Single results of other studies
| Substance | target | test | test system | setting | how to read | endpoint | result |
| --- | --- | --- | --- | --- | --- | --- | --- |
| PhoQ, residues 284 288 289 292 302 303 NLCILV | PhoP, residues 12 14 15 18 19 AQCLL (Escherichia coli, UniProt P23836) | Sort-seq, measured: YFP reporter | E. coli | PhoQ-PhoP variant library, together with: 10 µM Mg2+ | baseline: high Mg2+ state, higher = stronger signaling | fold induction | 0.368 |

For quick reference, copied from above (series 3):
| Oligonucleotide | E-score |
| --- | --- |
| CATTTAGA | 0.0614 |
